Assay results collected from several papers.
A part holds a random share of what one study measured.

Sample 1
Target: Phosphate system positive regulatory protein PHO4, full length, GST-tagged (PHO4, Saccharomyces cerevisiae, UniProt P07270, residues 1-312)
Technique: competition protein-binding microarray
Molecule type: double-stranded DNA, one strand shown
Medium: in vitro
Tested at: 2 µM
Notes: whole 60-bp probe, lowest competitor level
Added: Cbf1 competitor, 0.05 µM
Reading: higher = stronger binding
Constant ends, left off below: … GTCTTGATTCGCTTGACGCTGCTG
Construct (chain): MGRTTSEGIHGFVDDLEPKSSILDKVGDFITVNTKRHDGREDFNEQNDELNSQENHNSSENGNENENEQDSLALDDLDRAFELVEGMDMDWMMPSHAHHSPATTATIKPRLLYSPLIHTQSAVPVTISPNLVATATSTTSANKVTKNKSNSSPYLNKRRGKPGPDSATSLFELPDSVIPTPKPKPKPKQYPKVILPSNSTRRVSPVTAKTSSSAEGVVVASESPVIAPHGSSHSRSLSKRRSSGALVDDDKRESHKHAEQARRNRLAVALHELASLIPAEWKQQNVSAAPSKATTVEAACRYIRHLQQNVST
Oligonucleotide	fluorescence intensity [a.u.]
AATTGGAGAACACATTTCGTGGGTATTTCGACCCAA	5060
TAGTCTTTGTCTAGCTTCGTGCTTTTTAGCAAAAGC	4800
ACAAATATCGCGAACCGCGTGAAGTGGCTTAGTTTT	5760
CTAACGAAGGTTTGGGTCGTGGGTGACAAGCCAAGT	8790
AAAGCGGTAATTTGCGAAGTGGGTGCAGATATCTAT	4020
CGCCCTATTCTGCACAGCGTGATGGGCTGTCTGACA	6200
CGATGTGTTTACCATCACGGGAATCAGAAATATGTT	4840
CGTCCTAGTGATTGTGTTGTGGGTGCCATGAGGAAG	6930

Sample 2
Target: Replicase polyprotein 1ab, nsp13 helicase (rep, Severe acute respiratory syndrome coronavirus 2, UniProt P0DTD1)
Action: inhibitor
Tested at: 20 µM
SMILES	inhibition [%]
CCC[C@@H]1CC(=O)N([C@@H](CC)C(N)=O)C1	0.21
Oc1cc(O)cc(/C=C/c2ccc(O)c(O)c2)c1	1.06
O=S1(=O)OC(c2ccc(O)cc2)(c2ccc(O)cc2)c2ccccc21	2.19
COc1ccc(-c2cc(=O)c3c(OC)c(OC)c(OC)c(OC)c3o2)cc1	2.57
N=c1ccn2c(n1)O[C@H]1[C@H](O)[C@@H](CO)O[C@H]12	4.88
CCCCOc1nc(N)c2c(n1)N(Cc1cccc(CN3CCCC3)c1)CC(=O)N2	10
Cl[C@H]1[C@H](Cl)[C@@H](Cl)[C@@H](Cl)[C@H](Cl)[C@H]1Cl	2.25
Cc1ccnc(NS(=O)(=O)c2ccc(N)cc2)n1	3.9
Cc1cc(C(C)(C)C)c(O)c(C)c1CC1=NCCN1	1.32
CC(C)[N+]1(C)[C@@H]2CC[C@H]1C[C@@H](OC(=O)C(CO)c1ccccc1)C2 (some centres unmarked)	7.54
Nc1ccn([C@@H]2O[C@@](CO)(CCl)[C@@H](O)[C@H]2F)c(=O)n1	-0.31
O=C(O)c1ccccc1-c1c2cc(I)c(=O)c(I)c-2oc2c(I)c(O)c(I)cc12	18.7
Cc1ccccc1-c1cc(N2CCN(C)CC2)ncc1N(C)C(=O)C(C)(C)c1cc(C(F)(F)F)cc(C(F)(F)F)c1	7.71
Cc1ccc(-c2ncn(-c3ccc(Nc4nccc(-c5cccc(N6CCOCC6)c5)n4)cc3)n2)cn1	3.63
N[C@@H](Cc1cc(CP(=O)(O)O)cc(-c2ccccc2Cl)c1)C(=O)O	16.1
CC(C)C[C@H](NC(=O)CN(C)C(=O)[C@H](Cc1ccccc1)NC(=O)[C@H](Cc1ccccc1)NC(=O)[C@H](CCC(N)=O)NC(=O)[C@H](CCC(N)=O)NC(=O)[C@@H]1CCCN1C(=O)[C@H](CCCCN)NC(=O)[C@@H]1CCCN1C(=O)[C@@H](N)CCCN=C(N)N)C(=O)N[C@@H](CCS(C)(=O)=O)C(N)=O	5.2
Nc1cc(C(F)(F)F)c(-c2nc(N3CCOCC3)nc(N3CCOCC3)n2)cn1	-2.1
CCCC(=O)O	5.18
COC(=O)c1ccc2c(c1)nc(NC(=O)c1ccccc1)n2CCCc1ccccc1	2.79
COc1cc(N)c(Cl)cc1C(=O)N[C@@H]1CCN(CCCOc2ccc(F)cc2)C[C@@H]1OC (racemic)	-5.61
CC[C@@]1(O)C(=O)OCc2c1cc1n(c2=O)Cc2cc3c(N)cccc3nc2-1	7.97
CCc1ccc(C2=CC(C)(C)Sc3ccc(C#Cc4ccc(C(=O)O)cc4)cc32)cc1	2.82
Cn1cc(C(=O)C(=O)NC2CN3CCC2CC3)c2ccccc21 (centres unmarked)	8.94
O=C(O)[C@@H]1C[C@@H](O)CN1	1.83
CCC(=O)NC1CCc2cccc(OC)c2C1 (centres unmarked)	0.2

Sample 3
Compound: O=c1[nH]nc(Sc2ncc([N+](=O)[O-])s2)n1-c1ccc2c(c1)OCCO2
Observed: enzyme activity
Action: inhibitor
rep main protease: Replicase polyprotein 1ab, main protease (rep, Severe acute respiratory syndrome coronavirus 2, UniProt P0DTD1)
target	tested at	notes	inhibition [%]
Replicase polyprotein 1ab, 3C-like proteinase (rep, Middle East respiratory syndrome-related coronavirus, UniProt K9N7C7)	10 µM	–	84
rep main protease	20 µM	hit confirmation	101
rep main protease	20 µM	primary screen	96.4

Sample 4
Target: RING finger protein unkempt homolog, zinc fingers 1-6, GST-SBP tag (UNK, Homo sapiens, UniProt Q9C0B0, residues 30-357)
Technique: RNA Bind-n-Seq
Molecule type: RNA
Medium: in vitro
Tested at: not given
Notes: RNA with constant flanks, human and mouse sites, ends assumed
Relative to: input RNA pool
Reading: higher = stronger binding
Constant ends, left off below: GGGAGUUCUACAGUCCGACGAUC … CAACAGAGGAUUGAGCAUCA
Target sequence (chain): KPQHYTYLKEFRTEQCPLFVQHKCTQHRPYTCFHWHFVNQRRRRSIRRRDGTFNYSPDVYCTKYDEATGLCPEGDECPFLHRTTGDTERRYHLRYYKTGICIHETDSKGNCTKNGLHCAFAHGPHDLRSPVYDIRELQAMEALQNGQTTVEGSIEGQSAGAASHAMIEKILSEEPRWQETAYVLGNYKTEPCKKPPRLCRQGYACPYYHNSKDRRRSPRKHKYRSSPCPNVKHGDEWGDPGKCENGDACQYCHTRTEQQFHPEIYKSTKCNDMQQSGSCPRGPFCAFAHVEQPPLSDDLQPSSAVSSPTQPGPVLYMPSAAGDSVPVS
Oligonucleotide	bound/input enrichment [ratio]
AAUGAUGAUGCUAUGCUGAUCGAGAAGUUUGUAGACACACCGAGGCAUGUAGAAGUCCAGGUGUUUGGUGAUCACCAUGGCAAUGCUGUGUACUUGUUUGAAAGAGACUGUAGUGUGCAG	0.672
GCUCUGGAUAUAGAAAUCGCUGCGUACAGAAAACUCCUGGAGGGUGAAGAGACUAGAUUUAGCACAUUUGCAGGAAGCAUCACUGGGCCACUGUAUACACACCGACCCCCAAUCACAAUA	0.96
ACCAGAGAGAUGCCAUCACCAAAAUGAAAGAUGUGUACCUAAAGAACCCUCAGAUGGGAGACCCAGCCAGCCUGGACCAGAAGCUCACCGAAGUCACCCAGAACAUAGAGAAACUGCGGC	0.202
GACGACUAUGAAGCUGCUUCUGAUUUUUAUAGGAAGGGAGUUGAUUUACUCCUAGAAGGUGUUCAAGGAGAGUCAAGCCCUACCCGUCGAGAAGCUGUGAAGAGAAGAACAGCCGAGUAC	0.16
AUCUCCUCCAUCCUGGGCACCUGGCUGGACCAGUACUCGGAGGAUUUCUGUCAACCUCCGGACUUUCCCUGCCUCAAGCAGCUGGUGGCCUACGUGCAGCUCAACAUGCCAGGCUCAGAC	0.0615
ACUCAGUACCUUGGUUUGUCCCAACUGAAUAAGAGUUUGUAUUGUGUGUGUGUUCCUUGAAACCAAUGAUUUUCAAACUUUACAGCUUCAGAAUCACCCAGAGGGCUUGUUAAGACACUA	0.228
GUGGAGCCGGUGGAUGCUUCCGGCACGGAGAAAGCGUUCGAGCCAGCCACCGGCCGAGUGAUUGCCACUUUCGCGUGUUCAGGAGAAAAGGAAGUAAACUUGGCCGUUGAGAAUGCAAAG	0.102
UCUUCAAUAAACUUAGGAAAGUGUGCUCAGGAAGCAGGCUGAGCUGUCCUUUAUUAAUAUUAAUAUUGAUCUCAGAUUCGUCACCAUACAUUUCUUCCCCCUUUAUCUUUUCUUCUCCCU	0.829

Sample 5
Target: Sal-like protein 4, full length isoform B (SALL4, Homo sapiens, UniProt Q9UJQ4-2, residues 1-616)
Technique: universal PBM
Molecule type: double-stranded DNA, one strand shown
Medium: in vitro
Tested at: not given
Notes: 8-mer, flanks averaged, mean of replicates
Reading: higher = stronger binding
Oligonucleotide	E-score
TCGTTGCA	0.0314
CGTAAACC	-0.108
ACTGTGTC	0.00686
ATAACTCA	0.305
CCTTTTGC	-0.157
AGGACTAG	0.00831
AGATGCTA	0.11
GAAATTCA	0.183

Sample 6
Cell line: HEK-293T-ACE2
Tested at: concentration not given
Relative to: vehicle
Structure (SMILES)	cell number [%]
CC(C)NCC(O)COc1ccc(COCCOC(C)C)cc1.CC(C)NCC(O)COc1ccc(COCCOC(C)C)cc1.O=C(O)/C=C/C(=O)O (racemic)	100
CCC(CC)[C@H](NC(C)=O)[C@@H]1[C@H](O)[C@@H](C(=O)O)C[C@H]1NC(=N)N.O.O.O	94.2
FC(F)(F)C(Cl)Br (centres unmarked)	101
Cl.NCC(=O)CCC(=O)O	100
